{"data": "Assay results from different studies", "KPC-2": "KPC-2 (Klebsiella pneumoniae, UniProt Q9F663)", "PPIA": "PPIA (Homo sapiens, UniProt P62937)", "MPO mature": "MPO mature (Homo sapiens, UniProt P05164)", "TEM-1 β-lactamase": "TEM-1 β-lactamase (UniProt P62593)", "B1": "bbk32 108-205 (Borrelia burgdorferi, UniProt O50835); chain LKEQSETRKEKIQKQQDEYKGMTQGSLNSLSGESGELEEPIESNEIDLTIDSDLRPKSSLQGIAGSNSISYTDEIEEEDYDQYYLDEYDEEDEEEIRL", "note": "Each line is one published result; not all experiments were run side by side. Values joined by “and” are separate records of one study, mostly repeats; a detail may differ. Numbers after ± are the reported error.", "chain of UniProt O43614 (whole entry, unmodified, looked up)": "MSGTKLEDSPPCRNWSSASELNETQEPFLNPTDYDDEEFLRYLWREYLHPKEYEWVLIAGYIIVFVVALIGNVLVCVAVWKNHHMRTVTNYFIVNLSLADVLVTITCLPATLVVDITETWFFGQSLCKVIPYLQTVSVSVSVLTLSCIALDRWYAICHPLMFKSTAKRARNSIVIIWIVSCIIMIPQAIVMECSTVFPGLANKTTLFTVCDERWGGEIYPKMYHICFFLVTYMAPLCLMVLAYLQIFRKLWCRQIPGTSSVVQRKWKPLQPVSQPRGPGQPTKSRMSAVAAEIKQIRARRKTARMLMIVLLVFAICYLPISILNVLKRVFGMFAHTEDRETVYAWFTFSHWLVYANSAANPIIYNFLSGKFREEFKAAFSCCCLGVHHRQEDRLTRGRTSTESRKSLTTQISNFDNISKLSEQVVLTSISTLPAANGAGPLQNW", "chain of UniProt P05164 (whole entry, looked up)": "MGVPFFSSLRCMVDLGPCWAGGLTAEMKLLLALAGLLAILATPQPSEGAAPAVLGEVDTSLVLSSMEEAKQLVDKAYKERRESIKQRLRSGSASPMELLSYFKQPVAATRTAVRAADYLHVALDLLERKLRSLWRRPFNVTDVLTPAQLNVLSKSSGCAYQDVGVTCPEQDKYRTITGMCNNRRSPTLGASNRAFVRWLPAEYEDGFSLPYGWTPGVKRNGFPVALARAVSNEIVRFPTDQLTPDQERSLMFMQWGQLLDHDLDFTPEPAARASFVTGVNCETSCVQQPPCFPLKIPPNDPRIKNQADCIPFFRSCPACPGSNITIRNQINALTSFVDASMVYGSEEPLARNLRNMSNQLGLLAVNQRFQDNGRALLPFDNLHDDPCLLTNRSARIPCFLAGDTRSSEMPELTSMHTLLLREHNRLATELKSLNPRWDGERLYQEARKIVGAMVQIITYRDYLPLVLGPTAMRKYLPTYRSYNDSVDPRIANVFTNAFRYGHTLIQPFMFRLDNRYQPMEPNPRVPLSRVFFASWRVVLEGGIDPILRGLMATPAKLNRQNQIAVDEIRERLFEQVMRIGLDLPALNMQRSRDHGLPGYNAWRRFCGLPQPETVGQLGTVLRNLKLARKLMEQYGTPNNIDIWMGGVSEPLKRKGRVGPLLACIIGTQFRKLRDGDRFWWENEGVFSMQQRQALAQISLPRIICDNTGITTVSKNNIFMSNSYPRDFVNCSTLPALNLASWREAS", "chain of UniProt P19265 (whole entry, looked up)": "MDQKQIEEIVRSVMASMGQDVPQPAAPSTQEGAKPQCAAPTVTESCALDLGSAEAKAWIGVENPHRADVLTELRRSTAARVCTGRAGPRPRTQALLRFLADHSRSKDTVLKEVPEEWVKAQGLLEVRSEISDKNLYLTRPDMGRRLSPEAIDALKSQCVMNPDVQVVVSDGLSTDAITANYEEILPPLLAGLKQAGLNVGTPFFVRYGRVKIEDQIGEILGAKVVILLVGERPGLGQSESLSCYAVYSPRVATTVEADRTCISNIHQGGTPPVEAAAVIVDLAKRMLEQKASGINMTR", "chain of UniProt Q9ZFV2 (whole entry, looked up)": "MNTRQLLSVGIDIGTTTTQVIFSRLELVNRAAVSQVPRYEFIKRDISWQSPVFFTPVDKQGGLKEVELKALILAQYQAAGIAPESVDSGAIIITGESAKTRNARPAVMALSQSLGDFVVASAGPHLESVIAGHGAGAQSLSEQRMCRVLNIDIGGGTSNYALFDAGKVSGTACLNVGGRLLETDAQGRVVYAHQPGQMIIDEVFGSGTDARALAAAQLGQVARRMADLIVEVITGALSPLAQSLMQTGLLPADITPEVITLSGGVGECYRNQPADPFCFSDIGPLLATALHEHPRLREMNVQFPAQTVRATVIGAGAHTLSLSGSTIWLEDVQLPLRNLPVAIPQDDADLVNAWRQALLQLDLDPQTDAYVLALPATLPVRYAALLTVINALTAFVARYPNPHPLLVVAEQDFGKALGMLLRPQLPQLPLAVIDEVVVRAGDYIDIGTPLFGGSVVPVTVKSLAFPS", "chain of UniProt P07589 (whole entry, looked up)": "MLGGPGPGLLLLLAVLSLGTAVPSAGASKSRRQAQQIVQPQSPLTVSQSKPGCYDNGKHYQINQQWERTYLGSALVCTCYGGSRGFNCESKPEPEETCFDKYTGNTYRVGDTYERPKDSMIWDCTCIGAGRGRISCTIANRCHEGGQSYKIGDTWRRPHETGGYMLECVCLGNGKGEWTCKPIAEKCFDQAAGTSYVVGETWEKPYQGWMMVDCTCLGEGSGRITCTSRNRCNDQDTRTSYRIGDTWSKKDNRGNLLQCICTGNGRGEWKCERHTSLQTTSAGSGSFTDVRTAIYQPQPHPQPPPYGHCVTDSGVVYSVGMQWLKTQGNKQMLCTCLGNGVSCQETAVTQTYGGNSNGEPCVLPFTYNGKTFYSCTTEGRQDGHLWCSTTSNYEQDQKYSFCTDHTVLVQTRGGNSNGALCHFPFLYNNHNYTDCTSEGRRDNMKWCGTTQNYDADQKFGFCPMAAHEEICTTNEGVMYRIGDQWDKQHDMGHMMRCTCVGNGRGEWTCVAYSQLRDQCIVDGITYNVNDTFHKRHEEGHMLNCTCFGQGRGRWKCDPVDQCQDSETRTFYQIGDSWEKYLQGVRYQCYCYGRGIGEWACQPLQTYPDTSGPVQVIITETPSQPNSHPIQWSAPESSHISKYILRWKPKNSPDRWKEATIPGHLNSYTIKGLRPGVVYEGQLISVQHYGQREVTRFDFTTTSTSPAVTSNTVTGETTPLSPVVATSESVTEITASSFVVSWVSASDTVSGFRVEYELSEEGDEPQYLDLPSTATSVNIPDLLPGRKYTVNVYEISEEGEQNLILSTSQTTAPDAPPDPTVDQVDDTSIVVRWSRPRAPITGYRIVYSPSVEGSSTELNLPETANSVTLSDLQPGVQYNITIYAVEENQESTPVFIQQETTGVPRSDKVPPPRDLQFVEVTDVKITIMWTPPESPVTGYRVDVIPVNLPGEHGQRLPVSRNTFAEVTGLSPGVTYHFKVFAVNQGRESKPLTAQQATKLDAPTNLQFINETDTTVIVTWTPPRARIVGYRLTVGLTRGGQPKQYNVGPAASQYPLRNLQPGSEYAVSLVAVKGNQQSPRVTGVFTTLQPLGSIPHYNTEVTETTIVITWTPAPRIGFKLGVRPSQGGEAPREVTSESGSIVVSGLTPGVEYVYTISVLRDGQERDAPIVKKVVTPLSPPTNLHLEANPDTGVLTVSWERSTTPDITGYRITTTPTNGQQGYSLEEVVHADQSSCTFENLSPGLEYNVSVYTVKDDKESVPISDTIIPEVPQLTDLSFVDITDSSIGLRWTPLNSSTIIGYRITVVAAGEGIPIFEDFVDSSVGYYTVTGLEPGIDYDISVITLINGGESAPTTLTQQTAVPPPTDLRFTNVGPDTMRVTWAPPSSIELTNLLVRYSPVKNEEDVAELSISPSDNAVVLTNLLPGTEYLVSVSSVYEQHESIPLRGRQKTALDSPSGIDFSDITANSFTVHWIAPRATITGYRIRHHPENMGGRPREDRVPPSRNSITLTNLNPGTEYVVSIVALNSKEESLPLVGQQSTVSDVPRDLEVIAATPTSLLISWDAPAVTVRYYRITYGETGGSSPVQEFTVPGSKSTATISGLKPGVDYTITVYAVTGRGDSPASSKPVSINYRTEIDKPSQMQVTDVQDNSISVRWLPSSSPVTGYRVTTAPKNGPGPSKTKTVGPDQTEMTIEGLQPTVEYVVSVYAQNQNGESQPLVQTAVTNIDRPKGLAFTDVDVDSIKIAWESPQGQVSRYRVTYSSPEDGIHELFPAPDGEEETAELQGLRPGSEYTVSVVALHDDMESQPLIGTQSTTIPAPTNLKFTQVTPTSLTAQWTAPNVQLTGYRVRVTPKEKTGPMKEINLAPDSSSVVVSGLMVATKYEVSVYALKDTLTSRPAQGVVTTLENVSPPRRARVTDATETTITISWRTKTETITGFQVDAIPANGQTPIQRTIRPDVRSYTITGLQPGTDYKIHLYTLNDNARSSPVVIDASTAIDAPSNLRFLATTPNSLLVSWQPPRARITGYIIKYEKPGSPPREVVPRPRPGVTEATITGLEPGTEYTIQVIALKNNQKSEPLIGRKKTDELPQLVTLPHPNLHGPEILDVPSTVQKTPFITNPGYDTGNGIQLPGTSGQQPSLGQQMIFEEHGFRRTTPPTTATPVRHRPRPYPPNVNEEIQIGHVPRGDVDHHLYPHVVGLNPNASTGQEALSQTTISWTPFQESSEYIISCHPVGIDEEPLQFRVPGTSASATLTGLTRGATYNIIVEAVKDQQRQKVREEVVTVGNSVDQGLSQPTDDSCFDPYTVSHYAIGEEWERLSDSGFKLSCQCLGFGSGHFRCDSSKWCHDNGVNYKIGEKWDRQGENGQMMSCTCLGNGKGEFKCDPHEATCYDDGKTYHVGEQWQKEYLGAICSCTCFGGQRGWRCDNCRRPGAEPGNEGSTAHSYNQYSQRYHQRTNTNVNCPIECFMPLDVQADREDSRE"}
{"Molecule": "CHLWFTDGVLC (BLIP cyclic peptide (Streptomyces clavuligerus); C-terminal amide, cyclic, disulfide)", "target or system": "KPC-2", "assay": "BLI", "system": "peptide", "quantity": "Kd", "result": "410 ± 7 nM"}
{"Molecule": "gag CA CTD fragment I190V (Rous sarcoma virus)", "target or system": "itself", "assay": "ITC", "quantity": "Kd", "result": "40000 ± 10000 nM"}
{"Molecule": "B1 (bbk32 108-205)", "target or system": "FN1 mature (Bos taurus, UniProt P07589)", "assay": "SPR", "conditions": "Langmuir model", "quantity": "koff", "result": "0.072 s⁻¹"}
{"Molecule": "NS5B mature (hepatitis C virus)", "target or system": "PPIA", "assay": "luciferase, two-hybrid", "system": "CHO", "scale": "relative to: pACT/pBIND RLU, higher = stronger interaction", "quantity": "signal over pACT/pBIND", "result": "6 fold"}
{"Molecule": "nonaarginine", "target or system": "PorA peptide pore", "assay": "peptide binding, planar bilayer single-channel recording", "conditions": "0.5 µM, pH 7.4, +15 mV, trans side, 150 mM KCl", "quantity": "kon", "result": "7e+06 ± 700000 M⁻¹ s⁻¹"}
{"Molecule": "SPIN mature L49A/E52A (Staphylococcus aureus)", "target or system": "MPO mature", "assay": "MPO peroxidase activity, inhibitor", "conditions": "L49A variant", "quantity": "IC50", "result": "268 nM"}
{"Molecule": "NS5A mature (hepatitis C virus, UniProt Q9WMX2)", "target or system": "PPIA", "assay": "AlphaScreen", "system": "CHO", "scale": "relative to: CypA control, higher = stronger interaction", "quantity": "specific window", "result": "1.7 fold"}
{"Molecule": "CDYYAYATFGFTSAAADAKVC (MBP/BLIP cyclic peptide (Streptomyces clavuligerus); cyclic)", "target or system": "TEM-1 β-lactamase", "assay": "SPR", "system": "peptide", "quantity": "koff", "result": "0.00053 s⁻¹"}
{"Molecule": "hexaarginine", "target or system": "PorA peptide pore", "assay": "peptide binding, planar bilayer single-channel recording", "conditions": "pH 7.4, -25 mV, cis side, 150 mM KCl", "quantity": "Kd", "result": "29500 ± 3000 nM"}
{"Molecule": "HVLVMSATRR", "system": "peptide, C57BL/6J mice, male, serum", "conditions": "subcutaneous osmotic pump, 3 mg/kg/day peptide basis, 8 weeks", "quantity": "bicarbonate (total CO2)", "result": "19 mmol/L and 22 mmol/L and 24 mmol/L"}
{"Molecule": "Neurotensin", "target or system": "HCRTR2 (Homo sapiens, UniProt O43614, del254-292/I293E/K294R/L160H/M161K/Q254E)", "assay": "sensor fluorescence, fluorescence imaging", "system": "HEK293T", "conditions": "concentration not given, unit not given", "scale": "relative to: baseline", "quantity": "ΔF/F0", "result": "-0.134 and 0.956 and 2.26 and 1.51 and -1.96"}
{"Molecule": "AIP1 mature, cyclic thiolactone ring (Staphylococcus aureus)", "target or system": "agrC (Staphylococcus aureus)", "assay": "competition with FITC-AIP1, competitor, flow cytometry", "system": "S. aureus", "conditions": "1 µM, wild-type, unlabelled synthetic AIP1", "scale": "relative to: no unlabelled competitor, higher = more inhibition", "quantity": "FITC-AIP1 binding inhibition", "result": "50%"}
{"Molecule": "CAIAGGYFHGLALKGC (BLIP-II cyclic peptide (Streptomyces); C-terminal amide, cyclic, disulfide)", "target or system": "KPC-2", "assay": "BLI", "system": "peptide", "quantity": "koff", "result": "0.00029 s⁻¹"}
{"Molecule": "aspterric acid", "assay": "root length", "system": "Arabidopsis thaliana Col-0 seeds", "conditions": "12.5 µg/mL, seed germination", "scale": "relative to: water control", "quantity": "inhibition", "result": "99.2%"}
{"Molecule": "insulin human", "assay": "item: AKT3 mRNA", "system": "uninfected mouse, brain", "conditions": "i.p., dose not given", "scale": "relative to: PBS", "quantity": "fold change", "result": 1.83}
{"Molecule": "eutC (Salmonella enterica, UniProt P19265)", "target or system": "eutA (Salmonella enterica, UniProt Q9ZFV2)", "assay": "cross-linking", "quantity": "binding", "result": "binds"}
{"Molecule": "NS5A fragment (hepatitis C virus)", "target or system": "PPIA", "assay": "AlphaScreen", "scale": "relative to: GST-CypA alone RLU, higher = stronger interaction", "quantity": "signal over GST-CypA", "result": "2.9 fold"}
{"Molecule": "SPIN mature E52A (Staphylococcus aureus)", "target or system": "MPO mature", "assay": "MPO peroxidase activity, inhibitor", "conditions": "L49A variant", "quantity": "IC50", "result": "64.4 nM"}
{"Molecule": "CWSEYYPAYC (BLIP cyclic peptide (Streptomyces clavuligerus); C-terminal amide, cyclic, disulfide)", "target or system": "TEM-1 β-lactamase", "assay": "BLI", "system": "peptide", "quantity": "koff", "result": "0.00034 s⁻¹"}
{"note": "A few entries again:"}
{"Molecule": "CAIAGGYFHGLALKGC (BLIP-II cyclic peptide (Streptomyces); C-terminal amide, cyclic, disulfide)", "target or system": "KPC-2", "assay": "BLI", "system": "peptide", "quantity": "koff", "result": "0.00029 s⁻¹"}
{"Molecule": "aspterric acid", "assay": "root length", "system": "Arabidopsis thaliana Col-0 seeds", "conditions": "12.5 µg/mL, seed germination", "scale": "relative to: water control", "quantity": "inhibition", "result": "99.2%"}
{"Molecule": "insulin human", "assay": "item: AKT3 mRNA", "system": "uninfected mouse, brain", "conditions": "i.p., dose not given", "scale": "relative to: PBS", "quantity": "fold change", "result": 1.83}
